Results gathered from unrelated publications.
Target: MAP kinase-interacting serine/threonine-protein kinase 2 (MKNK2, Homo sapiens, UniProt Q9HBH9)

| SMILES | test | conditions | how to read | endpoint | value |
| --- | --- | --- | --- | --- | --- |
| CCN1CCN(Cc2ccc(C(=O)Nc3ccc(C)c(NCc4cnc5[nH]ccc5c4OC)c3)cc2C(F)(F)F)CC1 | binding, competition with immobilised ligand | 1 µM | – | remaining binding | 44% |
| CN1CCN(Cc2ccc(-c3ccc(CO[C@H]4CCC[C@@H]4NC(=O)c4cc(-c5cnn(C)c5)cnc4N)cc3)cc2)CC1 | enzyme activity, inhibitor | 0.1 µM | – | inhibition | 4% |
| Nc1ncc(-c2cc(-c3cnn(CC(F)(F)F)c3)ncc2F)nc1C(=O)NC1CNCC(F)C1 (stereo not shown) | enzyme activity | 1 µM | reference: DMSO control | remaining activity | 20.8% |
| O=C=[N][Ru-4]123([n]4c5ccc(O)cc5c5c6c(c7cc(F)c[n+]1c7c54)C(=O)NC6=O)[S+]1CC[S+]2CC[S+]3CC1 (stereo not shown) | enzyme activity | 100 nM, human enzyme, together with: 10 µM ATP | reference: untreated | remaining activity | 95% |
| COc1c(Cl)cccc1Nc1c(-c2ccncc2C#C[C@@]2(C)CCCN2C(=O)/C=C/CN(C)C)[nH]c2c1C(=O)NCC2 | binding, competition with immobilised ligand | 3 µM | – | remaining binding | 71% |
| CC(=O)N1c2ccc(-c3ccc(CNC(=O)c4cn5cc(-c6cnc(N)nc6)nc(N6CCOCC6)c5n4)cc3)cc2CC[C@@H]1C | KINOMEscan | 10 µM | – | remaining binding | 89% |
| CN1CC[C@@H](COc2cnc(C#N)cc2-c2ccn3nc(NC(=O)C4CC4)cc3c2)C1 | enzyme activity, inhibitor | 1 µM | – | inhibition | 2% |
| CN1CCN(Cc2ccc(NC(=O)c3cccc(C#Cc4cnc(N)c5ncccc45)c3)cc2C(F)(F)F)CC1 | cell-free assay, competition with immobilised ligand | 0.5 µM | – | remaining binding | 0.5% |
| Cc1cccc(-c2ccc3nc(NC(=O)C4CCOCC4)nn3c2)c1 | enzyme activity, Dundee kinase panel | 10 µM | – | remaining activity | 79% |
| C=C1CCCCCCCCCC(CO)C1=O (stereo not shown) | cell-free assay, competition with immobilised ligand | 10 µM | – | remaining binding | 100% |
| Cc1cccc(O[C@H]2CCC[C@@H](C(C)CNCc3ccncc3)C2)c1 (relative stereo) | enzyme activity, inhibitor | 10 µM | – | inhibition | -4% |
| C=CC(=O)Nc1cccc(-c2cnc3[nH]cc(C(=O)NC(C)(C)C)c3n2)c1 | enzyme activity, inhibitor | 0.1 µM | – | inhibition | 5% |
| Cc1cccc(C2(C(=O)Nc3c[nH]nc3-c3ccccc3)CC2)c1 | cell-free assay, competition with immobilised ligand | 10 µM | – | remaining binding | 17% |
| CCn1cc(C(=O)O)c(=O)c2c(N)c(F)c(NC3CCCCC3)cc21 | kinase activity | 0.1 µM, together with: ATP at Km | – | inhibition | 2.7% |
| Cc1cccc(-c2ccc3nc(NC(=O)C4CCCO4)nn3c2)c1 (stereo not shown) | enzyme activity, Dundee kinase panel | 10 µM | – | remaining activity | 68% |
| NC(=O)C[C@H]1CCc2sc3ncnc(O[C@H]4CC[C@H](N5CCOCC5)CC4)c3c21 | enzyme activity, inhibitor | 10 µM | – | inhibition | 7% |
| Nc1nc(Nc2ccccc2)sc1C(=O)c1ccccc1 | enzyme activity, inhibitor | 10 µM | – | remaining activity | 70% |
| COc1cc(Nc2nccc(-c3cnn4nc(OC)ccc34)n2)cc(C(F)(F)F)c1 | binding, competition with immobilised ligand | 1 µM | – | remaining binding | 84% |
| C=CC(=O)N1CCCC(n2c(=O)c3ncccc3n(Cc3ccc(Oc4ccccc4)cc3)c2=O)C1 (stereo not shown) | cell-free assay, competition with immobilised ligand | 1 µM | – | remaining binding | 61% |
| COc1ccc(NC(=O)Nc2ccc3c(c2)C(=O)N(C(C)CO)CC(C)C(CN(C)Cc2ccc4c(c2)OCO4)O3)cc1 (stereo not shown) | binding, competition with immobilised ligand | 10 µM | – | remaining binding | 77% |
| O=C(O)CCC(=O)c1cccc(NS(=O)(=O)c2c[nH]c3ncccc23)c1 | kinase activity, radiometric | 10 µM | – | remaining activity | 111% |
| Cc1ccc(-c2c(/C=C(\C#N)C(=O)NC(C)C)n(CCCO)c3ncnc(N)c23)cc1 | cell-free assay, competition with immobilised ligand | 1 µM | – | remaining binding | 92% |

Some of these lines once more:
| SMILES | test | conditions | how to read | endpoint | value |
| --- | --- | --- | --- | --- | --- |
| COc1cc(Nc2nccc(-c3cnn4nc(OC)ccc34)n2)cc(C(F)(F)F)c1 | binding, competition with immobilised ligand | 1 µM | – | remaining binding | 84% |
| C=CC(=O)N1CCCC(n2c(=O)c3ncccc3n(Cc3ccc(Oc4ccccc4)cc3)c2=O)C1 (stereo not shown) | cell-free assay, competition with immobilised ligand | 1 µM | – | remaining binding | 61% |
| COc1ccc(NC(=O)Nc2ccc3c(c2)C(=O)N(C(C)CO)CC(C)C(CN(C)Cc2ccc4c(c2)OCO4)O3)cc1 (stereo not shown) | binding, competition with immobilised ligand | 10 µM | – | remaining binding | 77% |
| O=C(O)CCC(=O)c1cccc(NS(=O)(=O)c2c[nH]c3ncccc23)c1 | kinase activity, radiometric | 10 µM | – | remaining activity | 111% |
